Experimental data gathered from unrelated publications.
Lines come from different studies, so protocols differ.

Substance | tested on | test | system | setting | scale | quantity | value
maraviroc |  |  | black CYP3A5 poor metabolizers, plasma | 300 mg twice daily |  | Tmax | 3 h
deucravacitinib |  |  | human | 4 mg twice daily, day 12, multiple ascending dose | relative to: day 1 AUC | accumulation index (AUC) | 1.85
semaglutide |  | refers to: recovering or resolving | human, safety analysis set | concentration not given, 32 weeks, run-in |  | participants with adverse events | 5.2%
chicoric acid | IPEC-J2 monolayer |  |  | added: monensin 50 µM | relative to: without inhibitor | Papp apical to basolateral | no effect

Some of these lines once more:
Substance | tested on | test | system | setting | scale | quantity | value
deucravacitinib |  |  | human | 4 mg twice daily, day 12, multiple ascending dose | relative to: day 1 AUC | accumulation index (AUC) | 1.85
